# Assay results from different studies.
# Protocols differ between the studies behind these lines.
# Technique: steady-state kinetics
# B1: FMO3 E158K (Homo sapiens, UniProt P31513); chain GKKVAIIGAGVSGLASIRSCLEEGLEPTCFEKSNDIGGLWKFSDHAEEGRASIYKSVFSNSSKEMMCFPDFPFPDDFPNFMHNSKIQEYIIAFAKEKNLLKYIQFKTFVSSVNKHPDFATTGQWDVTTERDGKKESAVFDAVMVCSGHHVYPNLPKKSFPGLNHFKGKCFHSRDYKEPGVFNGKRVLVVGLGNSGCDIATELSRTAEQVMISSRSGSWVMSRVWDNGYPWDMLLVTRFGTFLKNNLPTAISDWLYVKQMNARFKHENYGLMPLNGVLRKEPVFNDELPASILCGIVSVKPNVKEFTETSAIFEDGTIFEGIDCVIFATGYSFAYPFLDESIIKSRNNEIILFKGVFPPLLEKSTIAVIGFVQSLGAAIPTVDLQSRWAAQVIKGTCTLPSMEDMMNDINEKMEKKRKWFGKSETIQTDYIVYMDELSSFIGAKPNIPWLFLTDPKLAMEVYFGPCSPYQFRLVGPGQWPGARNAILTQWDRSLKPMQTRVVGRLQKPCFFFHWLKLFAIPILLIAVFLVLT
# B2: enzyme R228K (Arabidopsis thaliana, UniProt O82390); chain MNARALLCSSNIHSLYTSNRPPEKTSSSRSLRNLKPSPKSLRVWIYPRNRSSVFRVLVRSSDKSESSNSYYVEGDKVSGNNDVVSDSPSSIVLPWWEEFPKRWVIVLLCFSAFLLCNMDRVNMSIAILPMSAEYGWNPATVGLIQSSFFWGYLLTQIAGGIWADTVGGKRVLGFGVIWWSIATILTPVAAKLGLPYLLVVRAFMGVGEGVAMPAMNNILSKWVPVQEKSRSLALVYSGMYLGSVTGLAFSPFLIHQFGWPSVFYSFGSLGTVWLTLWLTKAESSPLEDPTLLPEERKLIADNCASKEPVKSIPWRLILSKPPVWALISCHFCHNWGTFILLTWMPTYYHQVLKFNLMESGLLSVFPWMTMAISANAGGWIADTLVSRGFSVTNVRKIMQTIGFLGPAFFLTQLKHIDSPTMAVLCMACSQGTDAFSQSGLYSNHQDIAPRYSGVLLGLSNTAGVLAGVLGTAATGHILQHGSWDDVFTISVGLYLVGTVIWNLFSTGEKIID
# B3: Comt (Mus musculus, UniProt O88587); chain MLLAAVSLGLLLLAFLLLLRHLGWGLVAIGWFEFVQQPVHNLLMGGTKEQRILRHVQQHAKPGDPQSVLEAIDTYCSEKEWAMNVGDAKGQIMDAVIREYRPSLVLELGAYCGYSAVRMARLLPPGARLLTMEINPDYAAITQQMLDFAGLQDKVSILIGASQDLIPQLKKKYDVDTLDMVFLDHWKDRYLPDTLLLEECGLLRKGTVLLADNVIVPGTPDFLAYVRGSSSFECTHYSSYLEYMKVVDGLEKAVYQGPGSSPVKS
# B4: CMBL (Homo sapiens, UniProt Q96DG6); chain MANEAYPCPCDIGHRLEYGGLGREVQVEHIKAYVTKSPVDAGKAVIVIQDIFGWQLPNTRYIADMISGNGYTTIVPDFFVGQEPWDPSGDWSIFPEWLKTRNAQKIDREISAILKYLKQQCHAQKIGIVGFCWGGTAVHHLMMKYSEFRAGVSVYGIVKDSEDIYNLKNPTLFIFAENDVVIPLKDVSLLTQKLKEHCKVEYQIKTFSGQTHGFVHRKREDCSPADKPYIDEARRNLIEWLNKYM
# B5: enzyme D382E (Arabidopsis thaliana, UniProt O82390); chain MNARALLCSSNIHSLYTSNRPPEKTSSSRSLRNLKPSPKSLRVWIYPRNRSSVFRVLVRSSDKSESSNSYYVEGDKVSGNNDVVSDSPSSIVLPWWEEFPKRWVIVLLCFSAFLLCNMDRVNMSIAILPMSAEYGWNPATVGLIQSSFFWGYLLTQIAGGIWADTVGGKRVLGFGVIWWSIATILTPVAAKLGLPYLLVVRAFMGVGEGVAMPAMNNILSKWVPVQERSRSLALVYSGMYLGSVTGLAFSPFLIHQFGWPSVFYSFGSLGTVWLTLWLTKAESSPLEDPTLLPEERKLIADNCASKEPVKSIPWRLILSKPPVWALISCHFCHNWGTFILLTWMPTYYHQVLKFNLMESGLLSVFPWMTMAISANAGGWIAETLVSRGFSVTNVRKIMQTIGFLGPAFFLTQLKHIDSPTMAVLCMACSQGTDAFSQSGLYSNHQDIAPRYSGVLLGLSNTAGVLAGVLGTAATGHILQHGSWDDVFTISVGLYLVGTVIWNLFSTGEKIID
# B6: UGT3A2 S435Y (Homo sapiens, UniProt Q3SY77); chain AKILTISTVGGSHYLLMDRVSQILQDHGHNVTMLNHKRGPFMPDFKKEEKSYQVISWLAPEDHQREFKKSFDFFLEETLGGRGKFENLLNVLEYLALQCSHFLNRKDIMDSLKNENFDMVIVETFDYCPFLIAEKLGKPFVAILSTSFGSLEFGLPIPLSYVPVFRSLLTDHMDFWGRVKNFLMFFSFCRRQQHMQSTFDNTIKEHFTEGSRPVLSHLLLKAELWFINSDFAFDFARPLLPNTVYVGGLMEKPIKPVPQDLENFIAKFGDSGFVLVTLGSMVNTCQNPEIFKEMNNAFAHLPQGVIWKCQCSHWPKDVHLAANVKIVDWLPQSDLLAHPSIRLFVTHGGQNSIMEAIQHGVPMVGIPLFGDQPENMVRVEAKKFGVSIQLKKLKAETLALKMKQIMEDKRYKYAAVAASVILRSHPLSPTQRLVGWIDHVLQTGGATHLKPYVFQQPWHEQYLLDVFVFLLGLTLGTLWLCGKLLGMAVWWLRGARKVKET
# B7: FMO3 N61S (Homo sapiens, UniProt P31513); chain GKKVAIIGAGVSGLASIRSCLEEGLEPTCFEKSNDIGGLWKFSDHAEEGRASIYKSVFSSSSKEMMCFPDFPFPDDFPNFMHNSKIQEYIIAFAKEKNLLKYIQFKTFVSSVNKHPDFATTGQWDVTTERDGKKESAVFDAVMVCSGHHVYPNLPKESFPGLNHFKGKCFHSRDYKEPGVFNGKRVLVVGLGNSGCDIATELSRTAEQVMISSRSGSWVMSRVWDNGYPWDMLLVTRFGTFLKNNLPTAISDWLYVKQMNARFKHENYGLMPLNGVLRKEPVFNDELPASILCGIVSVKPNVKEFTETSAIFEDGTIFEGIDCVIFATGYSFAYPFLDESIIKSRNNEIILFKGVFPPLLEKSTIAVIGFVQSLGAAIPTVDLQSRWAAQVIKGTCTLPSMEDMMNDINEKMEKKRKWFGKSETIQTDYIVYMDELSSFIGAKPNIPWLFLTDPKLAMEVYFGPCSPYQFRLVGPGQWPGARNAILTQWDRSLKPMQTRVVGRLQKPCFFFHWLKLFAIPILLIAVFLVLT
# B8: UGT3A2 Y74N (Homo sapiens, UniProt Q3SY77); chain AKILTISTVGGSHYLLMDRVSQILQDHGHNVTMLNHKRGPFMPDFKKEEKSNQVISWLAPEDHQREFKKSFDFFLEETLGGRGKFENLLNVLEYLALQCSHFLNRKDIMDSLKNENFDMVIVETFDYCPFLIAEKLGKPFVAILSTSFGSLEFGLPIPLSYVPVFRSLLTDHMDFWGRVKNFLMFFSFCRRQQHMQSTFDNTIKEHFTEGSRPVLSHLLLKAELWFINSDFAFDFARPLLPNTVYVGGLMEKPIKPVPQDLENFIAKFGDSGFVLVTLGSMVNTCQNPEIFKEMNNAFAHLPQGVIWKCQCSHWPKDVHLAANVKIVDWLPQSDLLAHPSIRLFVTHGGQNSIMEAIQHGVPMVGIPLFGDQPENMVRVEAKKFGVSIQLKKLKAETLALKMKQIMEDKRYKSAAVAASVILRSHPLSPTQRLVGWIDHVLQTGGATHLKPYVFQQPWHEQYLLDVFVFLLGLTLGTLWLCGKLLGMAVWWLRGARKVKET
# B9: UGT1A9 (Homo sapiens, UniProt O60656); chain GKLLVVPMDGSHWFTMRSVVEKLILRGHEVVVVMPEVSWQLGRSLNCTVKTYSTSYTLEDLDREFKAFAHAQWKAQVRSIYSLLMGSYNDIFDLFFSNCRSLFKDKKLVEYLKESSFDAVFLDPFDNCGLIVAKYFSLPSVVFARGILCHYLEEGAQCPAPLSYVPRILLGFSDAMTFKERVRNHIMHLEEHLLCHRFFKNALEIASEILQTPVTEYDLYSHTSIWLLRTDFVLDYPKPVMPNMIFIGGINCHQGKPLPMEFEAYINASGEHGIVVFSLGSMVSEIPEKKAMAIADALGKIPQTVLWRYTGTRPSNLANNTILVKWLPQNDLLGHPMTRAFITHAGSHGVYESICNGVPMVMMPLFGDQMDNAKRMETKGAGVTLNVLEMTSEDLENALKAVINDKSYKENIMRLSSLHKDRPVEPLDLAVFWVEFVMRHKGAPHLRPAAHDLTWYQYHSLDVIGFLLAVVLTVAFITFKCCAYGYRKCLGKKGRVKKAHKSKTH
# UniProt Q99518, sequence (whole entry, looked up): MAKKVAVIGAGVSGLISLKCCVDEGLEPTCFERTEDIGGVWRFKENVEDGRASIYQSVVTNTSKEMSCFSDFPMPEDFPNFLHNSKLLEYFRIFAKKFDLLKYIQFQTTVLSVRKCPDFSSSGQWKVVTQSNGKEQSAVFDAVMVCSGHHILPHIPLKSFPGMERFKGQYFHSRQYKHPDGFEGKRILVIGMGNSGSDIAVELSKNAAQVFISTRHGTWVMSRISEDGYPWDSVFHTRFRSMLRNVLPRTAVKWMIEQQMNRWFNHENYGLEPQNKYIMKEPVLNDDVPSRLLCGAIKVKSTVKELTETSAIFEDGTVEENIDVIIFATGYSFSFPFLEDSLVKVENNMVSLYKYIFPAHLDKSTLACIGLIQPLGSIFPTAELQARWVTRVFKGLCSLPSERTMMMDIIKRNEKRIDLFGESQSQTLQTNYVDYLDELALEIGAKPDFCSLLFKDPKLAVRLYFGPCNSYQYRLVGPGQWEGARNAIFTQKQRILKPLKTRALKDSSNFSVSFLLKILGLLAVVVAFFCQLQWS
# UniProt P05177, sequence (whole entry, looked up): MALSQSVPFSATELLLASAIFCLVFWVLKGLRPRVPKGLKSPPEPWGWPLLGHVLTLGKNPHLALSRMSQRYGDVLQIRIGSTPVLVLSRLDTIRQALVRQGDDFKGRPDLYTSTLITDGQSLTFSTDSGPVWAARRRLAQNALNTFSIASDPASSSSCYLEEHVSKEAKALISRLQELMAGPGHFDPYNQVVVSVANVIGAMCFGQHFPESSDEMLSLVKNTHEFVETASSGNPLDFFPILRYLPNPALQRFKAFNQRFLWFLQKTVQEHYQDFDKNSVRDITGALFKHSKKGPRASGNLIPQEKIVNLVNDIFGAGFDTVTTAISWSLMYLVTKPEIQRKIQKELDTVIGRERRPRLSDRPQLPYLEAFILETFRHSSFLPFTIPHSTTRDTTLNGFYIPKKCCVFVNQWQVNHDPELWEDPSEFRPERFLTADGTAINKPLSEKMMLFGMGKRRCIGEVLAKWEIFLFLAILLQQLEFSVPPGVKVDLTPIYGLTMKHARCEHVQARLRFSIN
Molecule,substrate,matrix,pH,temperature,setting,with,Vmax/Km [µL/min/mg]
B1 (FMO3 E158K),CN1CCC[C@H]1c1cccnc1,HEK293 microsomes,,37 °C,not purified,NADPH regenerating system,0.0062
"CYP1A2 (Homo sapiens, UniProt P05177)",COc1cc2c(cc1CC=C(C)C)C(=O)C[C@@H](c1ccc(O)cc1)O2,,pH 7.4,37 °C,,,41.1
B2 (enzyme R228K),O=P(O)(O)O,,pH 6.5,25 °C,"apparent, not purified",,41.7
"FMO2 (Homo sapiens, UniProt Q99518)",CN1CCC[C@H]1c1cccnc1,HEK293 microsomes,,37 °C,not purified,NADPH regenerating system,0.0018
"enzyme (Candida albicans, UniProt A0A1D8PHX1)",CCCCCCCC/C=C\CCCCCCCC(=O)SCCNC(=O)CCNC(=O)[C@H](O)C(C)(C)COP(=O)(O)OP(=O)(O)OC[C@H]1O[C@@H](n2cnc3c(N)ncnc32)[C@H](O)[C@@H]1OP(=O)(O)O,,pH 7.4,37 °C,"apparent, not purified",,1080
B3 (Comt),O=c1oc2c(O)c(O)ccc2cc1-c1nc2ccccc2s1,MLS9,pH 7.4,37 °C,,,523
B4 (CMBL),CCCc1nc(C(C)(C)O)c(C(=O)OCc2oc(=O)oc2C)n1Cc1ccc(-c2ccccc2-c2nnn[nH]2)cc1,lysate,pH 7.4,37 °C,not purified,,145
B5 (enzyme D382E),O=P(O)(O)O,,pH 6.5,25 °C,"apparent, not purified",,35
B6 (UGT3A2 S435Y),O=c1ccn([C@@H]2O[C@H](CO[P@@](=O)(O)O[P@@](=O)(O)O[C@H]3O[C@H](CO)[C@@H](O)[C@H](O)[C@H]3O)[C@@H](O)[C@H]2O)c(=O)[nH]1,,pH 7.4,37 °C,not purified,"1-OH-pyrene 16 µM, MgCl2 10 mM, alamethicin",0.55
B7 (FMO3 N61S),CN1CCC[C@H]1c1cccnc1,HEK293 microsomes,,37 °C,not purified,NADPH regenerating system,0.0039
B8 (UGT3A2 Y74N),O=c1ccn([C@@H]2O[C@H](CO[P@@](=O)(O)O[P@@](=O)(O)O[C@H]3O[C@H](CO)[C@@H](O)[C@H](O)[C@H]3O)[C@@H](O)[C@H]2O)c(=O)[nH]1,,pH 7.4,37 °C,not purified,"1-OH-pyrene 16 µM, MgCl2 10 mM, alamethicin",0.013
B9 (UGT1A9),COc1ccc(-c2oc3cc(O)cc(O)c3c(=O)c2OC)cc1O,,pH 7.4,37 °C,,,4570

# Excerpt of the above:
Molecule,substrate,matrix,pH,temperature,setting,with,Vmax/Km [µL/min/mg]
B6 (UGT3A2 S435Y),O=c1ccn([C@@H]2O[C@H](CO[P@@](=O)(O)O[P@@](=O)(O)O[C@H]3O[C@H](CO)[C@@H](O)[C@H](O)[C@H]3O)[C@@H](O)[C@H]2O)c(=O)[nH]1,,pH 7.4,37 °C,not purified,"1-OH-pyrene 16 µM, MgCl2 10 mM, alamethicin",0.55
B7 (FMO3 N61S),CN1CCC[C@H]1c1cccnc1,HEK293 microsomes,,37 °C,not purified,NADPH regenerating system,0.0039
